Published values from different studies.
Each numbered part is a random draw from the data of one study; scales do not carry over between parts. Several values in a cell are separate wells, animals, samples, runs or records.

Block 1 — effect on: thermal unfolding; technique: differential scanning fluorimetry; tested at: 5.5 µM; reading: higher = more unfolded
Structure (SMILES): C[C@@H]1CN(c2ccc(-c3cc(C(=O)NCCOCCOCCOCCOCCOCCOCCNC(=O)/C=C/c4[nH]cc(C(=O)N[C@@H](CC(N)=O)c5ccc(F)c(Cl)c5)c4-c4ccc(Cl)cc4F)ccc3F)cc2NC(=O)c2ccc(F)cc2C(F)(F)F)C[C@H](C)N1C
DCAF1: DDB1- and CUL4-associated factor 1 (DCAF1, Homo sapiens, UniProt Q9Y4B6)
UniProt Q9Y4B6, sequence (whole entry, looked up): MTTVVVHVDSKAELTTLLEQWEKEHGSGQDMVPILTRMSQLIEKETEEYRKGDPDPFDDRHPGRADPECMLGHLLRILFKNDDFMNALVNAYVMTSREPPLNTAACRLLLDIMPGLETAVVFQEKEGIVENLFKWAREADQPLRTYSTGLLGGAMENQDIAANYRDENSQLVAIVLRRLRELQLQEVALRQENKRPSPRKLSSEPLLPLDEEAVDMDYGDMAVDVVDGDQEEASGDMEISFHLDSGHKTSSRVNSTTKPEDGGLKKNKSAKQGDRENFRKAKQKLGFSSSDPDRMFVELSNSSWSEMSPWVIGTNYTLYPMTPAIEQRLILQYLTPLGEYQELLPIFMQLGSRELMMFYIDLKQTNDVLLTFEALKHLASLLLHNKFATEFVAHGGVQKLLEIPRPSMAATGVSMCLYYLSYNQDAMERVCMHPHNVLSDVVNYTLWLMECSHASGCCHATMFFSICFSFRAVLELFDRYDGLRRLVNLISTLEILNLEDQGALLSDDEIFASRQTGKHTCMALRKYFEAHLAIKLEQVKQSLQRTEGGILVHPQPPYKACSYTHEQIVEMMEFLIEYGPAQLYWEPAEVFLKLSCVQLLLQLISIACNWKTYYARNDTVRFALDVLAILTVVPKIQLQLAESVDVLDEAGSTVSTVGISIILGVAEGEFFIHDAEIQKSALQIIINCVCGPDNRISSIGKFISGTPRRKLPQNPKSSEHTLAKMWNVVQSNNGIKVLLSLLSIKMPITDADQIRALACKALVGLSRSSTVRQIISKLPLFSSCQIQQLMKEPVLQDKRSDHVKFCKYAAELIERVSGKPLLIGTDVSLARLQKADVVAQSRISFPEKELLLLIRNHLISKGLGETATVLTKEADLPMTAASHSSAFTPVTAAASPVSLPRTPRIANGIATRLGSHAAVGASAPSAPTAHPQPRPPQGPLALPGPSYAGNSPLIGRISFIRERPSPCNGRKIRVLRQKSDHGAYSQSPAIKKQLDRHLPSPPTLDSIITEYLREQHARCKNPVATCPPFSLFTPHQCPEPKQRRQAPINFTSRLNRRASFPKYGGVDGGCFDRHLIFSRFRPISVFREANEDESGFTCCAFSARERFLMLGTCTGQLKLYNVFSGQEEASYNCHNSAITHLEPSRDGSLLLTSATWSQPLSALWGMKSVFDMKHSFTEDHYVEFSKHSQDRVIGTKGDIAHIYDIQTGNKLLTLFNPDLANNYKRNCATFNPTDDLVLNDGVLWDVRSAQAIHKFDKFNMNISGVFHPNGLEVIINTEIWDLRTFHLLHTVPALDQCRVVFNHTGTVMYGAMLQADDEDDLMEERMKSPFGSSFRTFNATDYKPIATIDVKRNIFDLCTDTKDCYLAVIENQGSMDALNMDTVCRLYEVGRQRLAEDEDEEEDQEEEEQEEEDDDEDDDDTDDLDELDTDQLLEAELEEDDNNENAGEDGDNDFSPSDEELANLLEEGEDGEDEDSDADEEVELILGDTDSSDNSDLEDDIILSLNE
WDR5: WD repeat-containing protein 5 (WDR5, Homo sapiens, UniProt P61964)
target	setting	SYPRO Orange fluorescence [a.u.]
DCAF1	33.2 °C	9330
DCAF1	89.01 °C	33100
WDR5	26.8 °C	13300
WDR5	46.8 °C	15100
WDR5	29.2 °C	13500
WDR5	52.41 °C	16600

Mixed results
PKMYT1: Membrane-associated tyrosine- and threonine-specific cdc2-inhibitory kinase (PKMYT1, Homo sapiens, UniProt Q99640)
UniProt Q99640, sequence (whole entry, looked up): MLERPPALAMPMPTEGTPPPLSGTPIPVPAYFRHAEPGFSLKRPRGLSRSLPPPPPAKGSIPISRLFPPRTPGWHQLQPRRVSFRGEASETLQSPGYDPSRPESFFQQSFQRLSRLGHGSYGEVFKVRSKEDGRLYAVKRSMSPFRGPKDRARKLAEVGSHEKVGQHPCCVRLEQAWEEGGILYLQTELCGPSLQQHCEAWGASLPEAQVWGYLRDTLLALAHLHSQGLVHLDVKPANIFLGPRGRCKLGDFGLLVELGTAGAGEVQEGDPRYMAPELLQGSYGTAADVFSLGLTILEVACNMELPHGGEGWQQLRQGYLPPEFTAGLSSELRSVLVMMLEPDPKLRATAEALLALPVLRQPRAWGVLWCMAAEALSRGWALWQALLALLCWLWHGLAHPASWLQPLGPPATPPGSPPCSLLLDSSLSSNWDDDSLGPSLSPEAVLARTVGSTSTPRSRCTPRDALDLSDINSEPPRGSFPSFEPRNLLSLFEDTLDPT
CDK12 with cyclin K: Cyclin-dependent kinase 12, with cyclin K (CDK12, Homo sapiens, UniProt Q9NYV4)
UniProt Q9NYV4, sequence (whole entry, looked up): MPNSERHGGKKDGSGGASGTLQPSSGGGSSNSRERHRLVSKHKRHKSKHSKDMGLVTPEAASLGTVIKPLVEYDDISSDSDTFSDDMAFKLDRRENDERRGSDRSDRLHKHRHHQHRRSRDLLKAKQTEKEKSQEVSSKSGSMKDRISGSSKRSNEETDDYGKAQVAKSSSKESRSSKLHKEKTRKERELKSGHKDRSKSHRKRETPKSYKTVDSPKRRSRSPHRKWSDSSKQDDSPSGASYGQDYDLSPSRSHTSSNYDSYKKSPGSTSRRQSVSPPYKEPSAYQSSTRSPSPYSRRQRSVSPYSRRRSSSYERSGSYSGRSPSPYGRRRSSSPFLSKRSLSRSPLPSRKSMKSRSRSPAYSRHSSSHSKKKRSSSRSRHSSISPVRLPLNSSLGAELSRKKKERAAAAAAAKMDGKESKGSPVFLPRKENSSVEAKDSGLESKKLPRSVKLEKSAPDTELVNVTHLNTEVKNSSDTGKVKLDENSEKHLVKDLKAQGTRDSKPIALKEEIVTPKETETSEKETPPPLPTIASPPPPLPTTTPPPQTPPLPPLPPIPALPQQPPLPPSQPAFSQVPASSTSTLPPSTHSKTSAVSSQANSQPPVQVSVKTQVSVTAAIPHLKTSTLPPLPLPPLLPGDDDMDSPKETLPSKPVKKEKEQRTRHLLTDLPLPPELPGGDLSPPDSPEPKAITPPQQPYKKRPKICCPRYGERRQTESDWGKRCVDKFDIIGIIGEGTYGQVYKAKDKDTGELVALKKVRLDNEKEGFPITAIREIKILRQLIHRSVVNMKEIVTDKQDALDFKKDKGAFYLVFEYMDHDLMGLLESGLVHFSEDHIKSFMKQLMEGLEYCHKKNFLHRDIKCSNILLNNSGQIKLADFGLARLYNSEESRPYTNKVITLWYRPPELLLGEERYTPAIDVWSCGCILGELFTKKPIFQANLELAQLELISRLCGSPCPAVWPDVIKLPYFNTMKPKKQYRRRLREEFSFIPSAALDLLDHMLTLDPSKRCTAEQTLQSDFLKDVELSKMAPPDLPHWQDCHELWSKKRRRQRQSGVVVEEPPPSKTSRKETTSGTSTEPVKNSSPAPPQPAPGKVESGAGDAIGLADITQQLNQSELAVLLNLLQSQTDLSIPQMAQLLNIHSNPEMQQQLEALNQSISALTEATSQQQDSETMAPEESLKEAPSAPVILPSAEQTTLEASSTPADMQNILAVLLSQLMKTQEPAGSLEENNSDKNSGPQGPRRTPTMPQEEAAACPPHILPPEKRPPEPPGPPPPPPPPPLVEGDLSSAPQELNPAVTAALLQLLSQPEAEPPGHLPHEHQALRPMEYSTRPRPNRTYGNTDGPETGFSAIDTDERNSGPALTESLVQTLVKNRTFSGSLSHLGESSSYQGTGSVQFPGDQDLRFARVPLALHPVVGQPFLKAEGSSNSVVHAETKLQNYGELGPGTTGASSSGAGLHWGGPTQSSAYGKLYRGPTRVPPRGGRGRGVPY
SMILES	tested on	assay	system	setting	scale	endpoint	value
Cc1ccnc(C)c1-c1cnc2[nH]c(-c3ccc(N4CCN(C)CC4)nc3C)nc2c1	PKMYT1	binding, HTRF	–	3333.33 nM	–	inhibition	-6.5% and -7.75%
Cc1nc(C)c(C=[N+]([O-])C(C)(C)C)nc1C	CDK5	Western blot	MPTP mouse model	90 mg/kg, unit not given	baseline: β-actin	CDK5 protein level	69.8 and 185 and 139 and 118
Cc1ccc(O)c(C)c1-c1cnc2[nH]c(-c3cnc(N4CCC(CCN5CCN(c6cc7c(cc6F)c(N6CCC(=O)NC6=O)nn7C)CC5)CC4)nc3)cc2c1C#N	PKMYT1	degrader, automated immunoblot (Jess)	–	1 nM	baseline: GAPDH	protein level	38.1%
CCn1cnc2c(NCc3nc4cc(Cl)c(Cl)cc4[nH]3)nc(N3CCN(C(=O)c4cccnc4)CC3)nc21	CDK12 with cyclin K	kinase activity, inhibitor, ADP-Glo	–	0.6667 µM	–	inhibition	79.1%
Cc1ncc(-c2cc3c(C#N)c(-c4c(C)ccc(O)c4C)cnc3[nH]2)cn1	PKMYT1	–	–	0.00457 µM	–	inhibition	83.1%
CCn1cnc2c(NCc3nc4cc(Cl)c(Cl)cc4[nH]3)nc(N3CCN(C(=O)c4ccccn4)CC3)nc21	MDA-MB-231	cell viability, CellCounting-Lite	–	666.7 nM, 37 °C	higher = more viable cells	luminescence signal	13700 a.u. and 13600 a.u. and 14900 a.u.
Cc1ccc(O)c(C)c1-c1cnc2[nH]c(-c3cnc(N4CCC(CN5CCN(c6ccc7c(c6)C(=O)N(C6CCC(=O)NC6=O)C7=O)CC5)CC4)nc3)cc2c1C#N (centres unmarked)	HCC1569	CDK1 Thr14 phosphorylation, in-cell western	–	333.33 nM	lower = stronger inhibition	phospho-CDK1 (Thr14) level	98 a.u. and 95.4 a.u.
CCn1cnc2c(NCc3nc4cc(Cl)c(Cl)cc4[nH]3)nc(N3CCN(C(=O)c4ccccc4)CC3)nc21	CDK12 with cyclin K	kinase activity, inhibitor, ADP-Glo	–	0.6667 µM	–	inhibition	84%
